# Assay results from different studies.
# A part holds a random share of what one study measured.

# Study 1
# Target: RNA binding protein fox-1 homolog 2, RRM domain, GST-SBP tag (RBFOX2, Homo sapiens, UniProt O43251-10, residues 100-194)
# Method: RNA Bind-n-Seq
# Form: RNA
# Medium: in vitro
# Tested at: 365 nM
# Setting: natural RNA segment, single round, ends assumed
# Baseline: no-protein control
# Reading: higher = stronger binding
# Residues (chain): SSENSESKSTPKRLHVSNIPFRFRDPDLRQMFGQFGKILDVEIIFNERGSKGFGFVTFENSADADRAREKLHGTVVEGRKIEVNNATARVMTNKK
Oligonucleotide,RBNS enrichment (R)
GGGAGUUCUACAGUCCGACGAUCGGUUCUUGUCAGCUAGGUUUAAAGGUAUUUCACUGAGAACGCAAAUUCUGUCUUUUCUUGAUUUCGGCUGUUUUCAGUAUUUUGGAGGUAUACAUUUACUUAAAUUCAGUUGGAAUUCUCGGGUGCCAA,0.41
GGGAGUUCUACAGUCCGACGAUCCUUCGUUGUAAUGGUUUUGCUGUAAAAAAUGUUUCCAACUCCGCUGAAAUGUUGCUGAAAAGCAUGGUGCUGGUAACAGUUCAACAAUCCGUGGCUGCUCAUUCUUGCCUUGGAAUUCUCGGGUGCCAA,2.33
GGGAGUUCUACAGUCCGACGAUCUCAUCACAUACCUAUUUUGUAACAAGUGAGCUUGAGAAAAUUAAGAAAAUAUAUACAUUUAUUUAGCCAAAAGGAAUGAAGAAAGCAUUUACACAUUUGUGUUUUAUCUGUGGAAUUCUCGGGUGCCAA,0.725
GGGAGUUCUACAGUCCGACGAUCGGGAUUUAGUGCCCUGUCUCCCUGUCUCUAGAAGCCUUAGCCUGGGCACCUGGCUCAAUCUUGUAACUGCCUGCUAGCCAUAGAUUCCUUUCAGCCUUGCUGACUUCUCCUGGAAUUCUCGGGUGCCAA,1.25
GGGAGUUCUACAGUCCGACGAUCUGCCACCUCCCAAGGCAGAAAUCCCCUCUUCAGCUUCUUUUGUAGGUGGGAAUCCAGCCUCUGUUAGAUAUGUCCAGAGAUGGAAACUCACUCCCCUACAAAAGAUGGAGUGGAAUUCUCGGGUGCCAA,1.31
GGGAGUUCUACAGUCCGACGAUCAGGGACACUCCUACAGGUGAGAGUGUAUACCUUACUCUCUCAGAUAAGUGGCUGGACUUAUCUUGUGAUUUGGGGCCAUGGAAGAUUGGAAACAAAGAUUUUAAGCCUUCUGGAAUUCUCGGGUGCCAA,0.465
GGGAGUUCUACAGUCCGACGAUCACUCAGCUGUACCUGUCUGCCUGGACUGUCCCCUGUCCCCGCAUCUCCCCUGGGACCAGCUGGAGGGCCACAUGCACACACAGCCUAGCUGCCCCCAGGGAGCUCUGCUGUGGAAUUCUCGGGUGCCAA,0.752
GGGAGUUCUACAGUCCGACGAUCGCCCUUUUAUUUAUUGGACCAGAAACUCGCAUAUCACUUCCAGAGGAACAGGCCUCAGGAAUAUUUCUCCCUGGCCAGCCCUGCACUAGCUGGGGCAGGGGCAGAGGACAUGGAAUUCUCGGGUGCCAA,0.337
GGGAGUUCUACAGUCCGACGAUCGCGCCCCCCCCAUUCUUGUUCAGAUUAAGAGUUGCCAAAAUACCUUCUGAACUACACUGCAUUGUUGUGCCGAGAACACCGAGCACUGAACUUUGCAAAGACCUUCGUCUUGGAAUUCUCGGGUGCCAA,0.391
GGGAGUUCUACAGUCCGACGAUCGGAAGCAUAGAUAUCUAUAUUUUUAUUUCUACUAUGAGGGCCUUGUAAUAAAUUUCUAAAGCCUCUGGUUGCUUGUAUGUUUUCGGCUUCUAGAACAACUAGGACCCCUGUGGAAUUCUCGGGUGCCAA,4.53
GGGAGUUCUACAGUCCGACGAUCGCCCAUAUCCAAUUCGAAUUUCAGAAAUUUCUCUGUUUGCUUUAAAUAACUCUUUACAAAUAAGGGUCGGGCACGGUGGCUCACGCCUGUAAUCCCAGCUCUUUGGGAGGUGGAAUUCUCGGGUGCCAA,0.574
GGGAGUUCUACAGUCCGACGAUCUUUUAGUGCCUGUUGAGGACUUGAUUUCUUCUUGAUUUUUCUCUUAAUCUGGUUCAUUUGAAAUUUCUCACUUCUUAACCAUAGAGCUAAGUUAUUGUCAAAACUGGGCAUGGAAUUCUCGGGUGCCAA,5.11

# Study 2
# Target: Prothrombin, mature alpha-thrombin (F2, Homo sapiens, UniProt P00734)
# Method: aptamer microarray, sandwich
# Form: DNA with 2'F-ANA
# Medium: in vitro
# Tested at: 200 nM
# Setting: whole 15-mer aptamer, many near background
# Together with: Cy3 exosite-II aptamer, 400 nM
# Reading: higher = stronger binding
# Oligonucleotide: GGTTGGTGTGGTTGG
Modification,mean fluorescence intensity [a.u.]
2'F-ANA at 1 3 4 5 6 8 10 11 14,50.4
2'F-ANA at 1 8 11 12,352
2'F-ANA at 1 2 4 5 6 7 9 10 12 15,76.4
2'F-ANA at 1 3 4 6 7 8 9 13,127
2'F-ANA at 1 2 3 4 5 7 8 10 12 13,46.9
2'F-ANA at 2 4 5 7 10 15,48.9
2'F-ANA at 1 4 5 6 14 15,46.7
2'F-ANA at 1 2 3 4 5 6 7 10 13 14,49
2'F-ANA at 1 3 4 6 7 9 10 15,63.1
2'F-ANA at 2 4 5 12 13 14 15,47.8
2'F-ANA at 4 6 8 11 12 14,104
2'F-ANA at 3 5 8 9 10 12,89.5
2'F-ANA at 4 5 7 8 9,212
2'F-ANA at 2 3 4 5 7 10 13 15,47.6
2'F-ANA at 1 3 4 7 8 9 10 11 15,59.9
2'F-ANA at 1 2 3 13 14,65
2'F-ANA at 2 3 5 6 8 9 10 11 13 14 15,56.5
2'F-ANA at 2 3 4 5 7 11 12 13,111
2'F-ANA at 1 2 5 7 11,60.4
2'F-ANA at 1 2 3 6 7 8 9 10 11 12 13 14 15,57
2'F-ANA at 5 7 9 12 14,45.7
2'F-ANA at 1 2 3 4 5 7 12 13 14,46.6

# Study 3
# Target: Histone acetyltransferase KAT6A, winged helix 2, GST fusion (KAT6A, Homo sapiens, UniProt Q92794, residues 85-181)
# Method: protein binding microarray
# Form: double-stranded DNA, one strand shown
# Medium: in vitro
# Tested at: not given
# Setting: 8-mer, flanks averaged, mean of 2 arrays, mostly near background
# Baseline: not given
# Reading: higher = stronger binding
# Residues (chain): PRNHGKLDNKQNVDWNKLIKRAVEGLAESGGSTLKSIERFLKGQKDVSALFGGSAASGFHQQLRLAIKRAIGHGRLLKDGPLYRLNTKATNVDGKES
Oligonucleotide,E-score
AGATACGA,-0.0811
ACCTCGGA,0.0525
CAGCGTAG,0.137
ATGACTCC,-0.088
CCACATAC,-0.0946
ACCCCTGG,-0.023
CGGTTCCC,0.0838
CGTAGGAG,-0.123
ATCGGCAG,0.191
AGCTAAGA,-0.00024
ATGAAACC,0.101
ATACCTTC,-0.129
CTATGTAA,-0.0954
GATTTGAC,-0.147
CCGTGGGC,0.113
ATTCGCGA,0.0184
AAGCACCT,0.0619
GACCTGAA,-0.0319
ATATTTAC,0.219
AGTGACCG,0.0339
CGCAGGAG,0.136
AATGAAGG,-0.00442
GCTAGTCC,-0.147
AGACGGAA,-0.0644
CGGGTGAA,0.114

# Study 4
# Target: Sal-like protein 4, full length isoform B (SALL4, Homo sapiens, UniProt Q9UJQ4-2, residues 1-616)
# Method: universal PBM
# Form: double-stranded DNA, one strand shown
# Medium: in vitro
# Tested at: not given
# Setting: 8-mer, flanks averaged, mean of replicates
# Reading: higher = stronger binding
# Residues (chain): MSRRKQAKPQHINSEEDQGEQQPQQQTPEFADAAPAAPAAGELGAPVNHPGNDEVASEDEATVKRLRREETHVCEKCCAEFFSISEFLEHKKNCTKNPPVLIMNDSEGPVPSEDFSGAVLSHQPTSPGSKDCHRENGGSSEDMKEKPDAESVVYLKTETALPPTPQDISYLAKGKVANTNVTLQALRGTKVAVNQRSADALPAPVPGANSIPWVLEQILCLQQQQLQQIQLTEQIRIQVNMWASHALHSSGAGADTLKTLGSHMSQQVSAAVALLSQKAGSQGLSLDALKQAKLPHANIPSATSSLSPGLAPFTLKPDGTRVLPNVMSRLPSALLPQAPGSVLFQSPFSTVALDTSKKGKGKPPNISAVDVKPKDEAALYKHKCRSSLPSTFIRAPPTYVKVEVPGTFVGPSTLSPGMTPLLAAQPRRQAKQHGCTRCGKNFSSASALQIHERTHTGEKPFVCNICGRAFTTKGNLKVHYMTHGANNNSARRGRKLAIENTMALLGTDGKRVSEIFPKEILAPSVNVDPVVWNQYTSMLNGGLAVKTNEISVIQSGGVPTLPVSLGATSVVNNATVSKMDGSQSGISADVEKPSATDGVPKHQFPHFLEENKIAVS
Oligonucleotide,E-score
AAGTGGGA,0.142
GTCAAGTA,0.00746
GGCATACA,0.0619
ATCGCTGC,-0.203
GTCCCCGA,-0.198
TAGTGCAA,0.236
ACCTTCTC,-0.093
AGTTCGAA,0.0262
GACAAGGC,-0.159
ACTATACG,0.136
ACTTTTCA,0.132
AACGACGA,0.0103
GACATTTA,0.183
ATGCGGCC,-0.152
CAGCGTCA,-0.194
AGGGTAAC,-0.0261
TGATGCCA,0.0279
CTGTAAAC,0.226
CGAGTCAG,-0.147
CGTCTCAC,-0.244
ACCATCCC,-0.0631
TACCCCAA,-0.123
GTCCCGAA,-0.19
CGAGATCG,-0.221
TGCCGACA,-0.144

# Study 5
# Target: Interferon regulatory factor 7, full length, phosphomimetic (IRF7, Homo sapiens, UniProt Q92985, residues 1-503, S101K/S471D/S472D/S475D/S476D/S477D/S483D/S484D/S487D)
# Chain of UniProt Q92985 (whole entry, unmodified, looked up): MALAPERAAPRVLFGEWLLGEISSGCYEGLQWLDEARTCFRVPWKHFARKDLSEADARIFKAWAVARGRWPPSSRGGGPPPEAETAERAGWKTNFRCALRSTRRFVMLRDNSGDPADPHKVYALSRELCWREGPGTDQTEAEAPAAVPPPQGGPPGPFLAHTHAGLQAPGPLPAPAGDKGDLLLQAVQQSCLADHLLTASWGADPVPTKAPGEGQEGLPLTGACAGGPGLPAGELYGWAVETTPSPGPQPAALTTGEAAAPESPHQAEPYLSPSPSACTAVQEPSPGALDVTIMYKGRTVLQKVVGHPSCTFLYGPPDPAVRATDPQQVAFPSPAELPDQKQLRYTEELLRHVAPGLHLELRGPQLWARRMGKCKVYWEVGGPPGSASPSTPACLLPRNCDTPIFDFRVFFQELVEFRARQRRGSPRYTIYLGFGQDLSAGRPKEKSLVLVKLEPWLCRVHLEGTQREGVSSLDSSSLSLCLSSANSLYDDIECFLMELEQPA
# Method: protein-binding microarray
# Form: double-stranded DNA, one strand shown
# Medium: in vitro
# Tested at: 250 nM
# Setting: 60-bp whole probe
# Together with: salmon DNA 0.4 mg/ml
# Baseline: random background probes
# Reading: higher = stronger binding
# Constant ends, left off below: GCCTAGCAC … GTCTTGATTCGCTTGACGCTGCTG
Oligonucleotide,log fluorescence [z-score]
GACGGACGGCTTCTCCTGACGTGCTAG,-0.908
GACGATTTCGGGTATCGAGAAGTGCTA,0.858
TCATTTTTTCTAATTGAACTGTGCTAG,2.2
TTCCAGCTGGTGACTAGCGAGTGCTAG,-0.267
GTTCTTATCCTTCCCCTCTAGTGCTAG,1.53
TGGTCTTTCTGTTTTCTCCAGTGCTAG,1.85
TCATTTTTGCTTTCTTTACTGTGCTAG,1.81
GACGGTTTCCACACTGGGGACGTGCTA,1.38
GACGGTATCGGACCGGGGACGTGCTAG,-0.36
TCACCACCCACTCTGGCACTGTGCTAG,-0.315
GTGTGTTTGTGTGTGTATGTGTGCTAG,-0.0179
GAACATTTCAATTAGAAAAAGTGCTAG,0.58
GACGGGTTCCTTCTCCTGACGTGCTAG,0.486
TTAGGTTTACTTCTCCTTTAGTGCTAG,0.705
TCATTTTCATGCTCTTATACTGTGCTA,1.29
AACCGCCTCTCCCTTAGACGGTGCTAG,0.446
GACAATATCGGGACTGGAGACGTGCTA,-0.0931
CTATGTCTGTTTTTGCTTTCGTGCTAG,1.05
TTAGGTTCCCTACTGCTTTAGTGCTAG,0.662

# Some of these lines once more (study 2):
Modification,mean fluorescence intensity [a.u.]
2'F-ANA at 1 2 3 4 5 7 8 10 12 13,46.9
2'F-ANA at 1 2 5 7 11,60.4
2'F-ANA at 1 8 11 12,352
2'F-ANA at 4 5 7 8 9,212
2'F-ANA at 5 7 9 12 14,45.7
2'F-ANA at 1 2 3 4 5 6 7 10 13 14,49
2'F-ANA at 1 2 4 5 6 7 9 10 12 15,76.4
2'F-ANA at 2 4 5 7 10 15,48.9
2'F-ANA at 3 5 8 9 10 12,89.5
2'F-ANA at 2 4 5 12 13 14 15,47.8
